Published values pooled from the literature.
Parts stem from different laboratories: compare values within a part only.

Block 1
Target: Prothrombin, mature alpha-thrombin (F2, Homo sapiens, UniProt P00734)
Technique: aptamer microarray, sandwich
Molecule type: DNA with 2'F-ANA
Matrix: in vitro
Concentration: 200 nM
Notes: whole 15-mer aptamer, many near background
Added: Cy3 exosite-II aptamer, 400 nM
Reading: higher = stronger binding
Strand: GGTTGGTGTGGTTGG
Modification	mean fluorescence intensity
2'F-ANA at 1 3 7 8 9 10 15	91.3 a.u.
2'F-ANA at 6 7 8 9 13 15	347 a.u.
2'F-ANA at 1 2 4 5 6 7 10 13	52.6 a.u.
2'F-ANA at 1 3 4 8 9 10 13	55 a.u.
2'F-ANA at 3 4 5 6 8 9 13 14 15	49.9 a.u.
2'F-ANA at 2 8 9 11 13 14 15	110 a.u.

Block 2
Target: Histone acetyltransferase KAT6A, both winged helices, GST fusion (KAT6A, Homo sapiens, UniProt Q92794, residues 1-181)
Technique: protein binding microarray
Molecule type: double-stranded DNA, one strand shown
Matrix: in vitro
Concentration: not given
Notes: 8-mer, flanks averaged, mean of 2 arrays, mostly near background
Reference: not given
Reading: higher = stronger binding
Construct (chain): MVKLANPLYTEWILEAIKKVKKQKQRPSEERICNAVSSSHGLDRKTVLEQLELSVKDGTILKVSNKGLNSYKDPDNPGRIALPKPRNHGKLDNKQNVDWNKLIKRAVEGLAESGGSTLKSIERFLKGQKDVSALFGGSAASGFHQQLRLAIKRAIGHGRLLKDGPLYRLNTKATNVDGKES
Strand	E-score
TACATGCA	0.00197
GCGGTCCA	0.179
CACTCCGG	0.0162
GCTTAGCC	0.168
AGATATAT	-0.00043
ATCTACTG	-0.098
CCCGGCCC	0.0916

Block 3
Target: RING finger protein unkempt homolog, zinc fingers 1-6, GST-SBP tag (UNK, Homo sapiens, UniProt Q9C0B0, residues 30-357)
Technique: RNA Bind-n-Seq
Molecule type: RNA
Matrix: in vitro
Concentration: not given
Notes: RNA with constant flanks, ends assumed
Reference: input RNA pool
Reading: higher = stronger binding
All sequences stand within: GGGAGUUCUACAGUCCGACGAUC … CAACAGAGGAUUGAGCAUCA
Residues (chain): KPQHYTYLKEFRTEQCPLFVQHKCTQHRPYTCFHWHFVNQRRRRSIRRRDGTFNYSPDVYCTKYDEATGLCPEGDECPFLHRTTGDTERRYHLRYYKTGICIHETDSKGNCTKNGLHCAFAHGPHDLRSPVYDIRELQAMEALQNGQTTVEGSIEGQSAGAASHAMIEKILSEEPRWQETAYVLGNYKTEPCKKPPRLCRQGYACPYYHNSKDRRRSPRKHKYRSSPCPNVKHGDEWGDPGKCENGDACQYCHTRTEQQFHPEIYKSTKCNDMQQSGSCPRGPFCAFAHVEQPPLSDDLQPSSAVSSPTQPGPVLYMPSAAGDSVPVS
Strand	bound/input enrichment
UCUAAGGAAGCACAGAUAAGAGAAACUGAAACGUUUUCAGAUUCAUCUCCAAUUGAAAUUACCGAUGAGUUCCCUACAUUGAUCAGUUCUAAAACUGAUUCAUUUUCUAAAUUAGCCAGG	0.556 ratio
UCUUCAGAUAUGAAAAUGACUCAGCUAUUCACCAAAGUUGAAUCAGAAGAUACAAGCCGCCUCUUUGACAAACUUAAGAAGGAACCUGAUGCUUUAACUUUGCUGGCCCCAGCCGCUGGA	0.31 ratio
CCAAUUGUGGAGCAGUACUUGAAGACAAAGAAAAAUUCUAAUAAUUUAAUCAUCAAGUACAUCCGCUGCCGCCUGCUGACACUCAUCAUUAUACUGUUAGCGUGUAUCUACCUGGGCUAU	0.224 ratio
AAGCAAUGUGGGAAAACUUUCAAUUGGCCCAUAUCUUUACGAAAACAUAUGAGAACACAUACCCGAGAGAAACCCUAUGAAUGUAAGCAGUGUGGGAAAGCCUUCAGCUUGUCUGCUUGC	0.0938 ratio
ACAGUUUAGAUAUUCUUUUUAUUUUUUUUCUUUUCCCUCAAUCCUUUUUUAUUUUUAAAAACCGUUCUUUUGUAAUGUGGUGUUCAAAACGGAAUUGAAAACUGGCACCCCAUCUCUUUG	124 ratio
GUAGGCUCUGUCCGUUCCCAUACCUCCAGCAGGGCCAGUGAGAAUCAGUCUCCCAGCAGCCGCAACUACUUCAGCCCCCGGGAGUCGACUGAUUUCUCCUCUACCUCCCAGGAUGCAUUU	0.081 ratio
ACUAAUGCAGUGAUCGCCGGCUUGAUAGUGUUGGAAGGAUUAAAGAUUUUAUCUGGAAAAACCGACCAGUGUAGAACUAUUUUUUUGAAUAAGCAGCCAAACCCAAGAAAGAAGCUCUUG	1.35 ratio
AGUGGGAACAUUACUUUUGAUGAGAUUGUCAACAUUGCCCGGCAGAUGAGACACCGGUCUUUGGCCCGAGAACUUUCUGGAACUAUCAAGGAGAUCCUGGGUACUGCACAGUCUGUGGGC	0.112 ratio

Single results of other studies
Substance	target	test	test system	setting	how to read	quantity	result
PhoQ, residues 284 288 289 292 302 303 HSSMNL	PhoP, residues 12 14 15 18 19 IQSYL (Escherichia coli, UniProt P23836)	Sort-seq, item: YFP reporter	E. coli	PhoQ-PhoP variant library, added: 10 µM Mg2+	reference: high Mg2+ state, higher = stronger signaling	fold induction	16.3

A few entries again (block 3):
Strand	bound/input enrichment
CCAAUUGUGGAGCAGUACUUGAAGACAAAGAAAAAUUCUAAUAAUUUAAUCAUCAAGUACAUCCGCUGCCGCCUGCUGACACUCAUCAUUAUACUGUUAGCGUGUAUCUACCUGGGCUAU	0.224 ratio
ACAGUUUAGAUAUUCUUUUUAUUUUUUUUCUUUUCCCUCAAUCCUUUUUUAUUUUUAAAAACCGUUCUUUUGUAAUGUGGUGUUCAAAACGGAAUUGAAAACUGGCACCCCAUCUCUUUG	124 ratio
